Results of several laboratories.
Parts stem from different laboratories: compare values within a part only.

Study 1 — target: human cyclin A2; read-out: peptide binding; technique: competitive growth sequencing; form: peptide; organism: Saccharomyces cerevisiae; strain: cyclin A2-Cln2 fusion strain; tested at: concentration not given; setting: mutational scanning library 2; reference: unfused Cln2 strain; direction: direction not given; endpoint: binding score
LLRRLQDVANDRG: 1.11
LLKRLQDVVSERA: 1.45
GFGFLLFICKLTF: 1.36

Study 2 — technique: RNA Bind-n-Seq; form: RNA; matrix: in vitro; tested at: not given; reference: input RNA pool; direction: higher = stronger binding; endpoint: bound/input enrichment
Target: RING finger protein unkempt homolog, zinc fingers 1-6, GST-SBP tag (UNK, Homo sapiens, UniProt Q9C0B0, residues 30-357)
Setting: RNA with constant flanks, human and mouse sites, ends assumed
Target sequence (chain): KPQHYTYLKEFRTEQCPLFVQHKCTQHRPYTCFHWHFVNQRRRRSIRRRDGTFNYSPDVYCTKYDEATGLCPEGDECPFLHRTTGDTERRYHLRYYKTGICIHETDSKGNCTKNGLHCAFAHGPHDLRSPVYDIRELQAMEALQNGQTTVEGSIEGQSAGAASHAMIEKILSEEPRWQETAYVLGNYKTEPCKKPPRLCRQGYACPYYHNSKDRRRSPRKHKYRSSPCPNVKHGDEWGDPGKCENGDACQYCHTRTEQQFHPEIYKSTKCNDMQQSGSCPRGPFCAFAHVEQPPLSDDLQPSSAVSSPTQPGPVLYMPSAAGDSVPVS
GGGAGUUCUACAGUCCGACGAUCCCCCUCAUUUGACCUUUCACCUCUGUCUGUUGGAAGCAGUACUUUUUACUGCCUCCUUGUCUUCUGUACAUCUUACUGGGUUUAAUUAAAAAAAGAAAAAAGAAAAAACAACUCUUGUAACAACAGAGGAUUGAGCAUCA: 0.509 ratio
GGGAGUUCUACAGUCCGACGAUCGUCAUUGACAGGAAGCGUCACCAUGUCCUGCAGACAGCUCACCCCUCCCCGCUGUCGGUGCACAGAGGGUUCCUGGGAUGCAGACAUUUUUCUAAAGCCAAUGAACUGCUCCAGAAGUCUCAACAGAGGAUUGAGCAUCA: 0.13 ratio
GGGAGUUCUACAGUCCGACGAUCGAGACACUUGAAGAAAAUUGCCCCAAAGCCCUGACUUUAAGGAUUCAUGAUUCUUUGAAUAAUACUCUGUCAGUUGGCCUCAUUCCAACCAAUUCAACAAAUACUAUCAUGGACCAAAAACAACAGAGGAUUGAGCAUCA: 0.255 ratio
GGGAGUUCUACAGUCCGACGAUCCUGACCGGCGGGUCCCAGAGACCUGCCCCCAAGGUGUCCCACUGUGUGGCUAAGGGUGGGAUAGAACCCGGGCUGGGAGAGCCGGGUUAUGGGUUCCAGUGGUGGUUCCGCCGCUUCCUUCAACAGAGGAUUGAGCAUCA: 0.224 ratio
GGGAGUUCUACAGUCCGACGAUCUUUCUGAAAAUCCAAAGUCAGGAAGCCAAGUGUGCGAAGGGUUAGUGACGCCUCUGGCAAUAGCUUUGGCUUGCCCUGGGCCAUACUCUGUCAGCACUGAAAGGAGGUUUAAAUACUAUGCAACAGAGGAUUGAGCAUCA: 0.144 ratio
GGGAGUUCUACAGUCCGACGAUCUGGCGGCGGCUUUGGCUCUGAGGGACAGGGGUAGUGUUCCUGGUUUUGGUGGGGUUUGCCUUUAGUUUAAUUUUCCUUUUCUAGCUUCCCUUUGCCGGCUGGUGCGUACGUUGUAGUCCCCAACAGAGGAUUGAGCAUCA: 9 ratio
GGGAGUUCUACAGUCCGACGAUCCUCUCCGCGCGCCCGACAGCUCAGCCCUCGCCCGUGACCAACAUCAUGUGCGGUAUAUUUGCUUAUUUAAAUUACCAUGUUCCUCGAACAAGACGAGAAAUCUUGGAGACACUAAUCAAACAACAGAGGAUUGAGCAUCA: 0.322 ratio
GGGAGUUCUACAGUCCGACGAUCAUCCUGCCUGUGUCUGUAGAUGAGUAUCAAGUGGGGCAGCUGUAUUCUGUGGCUGAAGCCAGUAAAAAUGAAACUGGUGGUGGGGAAGGUGUGGAGGUCCUGGUGAAUGAGCCCUACGAGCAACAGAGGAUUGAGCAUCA: 0.246 ratio
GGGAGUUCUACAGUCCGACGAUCGCCAAUCAGGCUAUCAAUCCAAAACUGAUGCAGCUUGUGGACCACAGAGGAGGCGGCGGAGGCGGGGGUAAGGGUGGUCGUUCUCGUUACCGGACCACUUCUUCAGCCAACAAUCCCAAUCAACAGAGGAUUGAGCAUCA: 0.14 ratio
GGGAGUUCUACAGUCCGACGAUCCGCCGUGGUGGCCGUUAAACGGUCUCAGAGCGGAGCUAUCGGUUGUCUGCGGCCGUAGUGAGCUUUGCUUCGUUUCCUGAAGAUGGAGGGUCCUUUGUCCGUGUUCGGGGACCGCAGCACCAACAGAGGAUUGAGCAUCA: 0.0654 ratio
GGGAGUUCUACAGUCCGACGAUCUGCUGUAGGUUAUUUUAUAAAGAUGCCAAAGGAAACAAGUUUUUCUUUAUUUAUUUUAAGUAGCUAAAACUUUGUACUGUUCUUUAUAUUCUCAGAUAAGAAGGAAAUGUGUGAAAUAACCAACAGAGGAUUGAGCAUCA: 0.414 ratio

Study 3 — technique: competition protein-binding microarray; form: double-stranded DNA, one strand shown; matrix: in vitro; tested at: 2 µM; added: Cbf1 competitor, 0.05 µM; direction: higher = stronger binding; endpoint: fluorescence intensity
Target: Phosphate system positive regulatory protein PHO4, full length, GST-tagged (PHO4, Saccharomyces cerevisiae, UniProt P07270, residues 1-312)
Setting: whole 60-bp probe, lowest competitor level
Target sequence (chain): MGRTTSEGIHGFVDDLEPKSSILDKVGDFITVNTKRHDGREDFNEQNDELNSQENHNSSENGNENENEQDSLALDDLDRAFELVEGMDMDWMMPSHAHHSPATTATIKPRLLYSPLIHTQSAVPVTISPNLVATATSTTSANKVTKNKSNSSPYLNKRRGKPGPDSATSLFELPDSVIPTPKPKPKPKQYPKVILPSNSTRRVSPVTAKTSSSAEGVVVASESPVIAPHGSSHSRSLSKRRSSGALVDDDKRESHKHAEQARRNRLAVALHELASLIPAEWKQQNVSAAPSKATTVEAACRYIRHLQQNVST
AAATTACTAAGTTGTGGTGTGGGTGACGCCGTATGAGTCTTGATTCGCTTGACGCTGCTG: 5180 a.u.
AGCCATACACCAAAGCACGTCGACGAGGTTATATTTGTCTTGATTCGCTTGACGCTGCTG: 7250 a.u.
CATCGCACCCTGACATTCGTGACAAAATAAGAACAAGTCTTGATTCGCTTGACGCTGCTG: 4850 a.u.
AAAGCGGTAATTTGTTCGGTGGGTGCAGATATCTATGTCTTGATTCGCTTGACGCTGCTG: 4110 a.u.
GTCTTGTCTCATTGAGATGTGGGTGTCCCCACTTCAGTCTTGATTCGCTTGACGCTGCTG: 4850 a.u.
TTGGTAGAGGCGGTTCCCGTGGTGATGCTCGCGGTGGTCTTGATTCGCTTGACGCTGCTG: 6620 a.u.
ACCCCGGAACACTGGCACGTATTTCATAAAAAGGACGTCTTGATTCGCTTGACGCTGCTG: 8150 a.u.
CAGAACTAGATGGCGCTCGTGATTGTGAAAACGGGGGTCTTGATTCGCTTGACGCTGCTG: 6660 a.u.
CTTTCCCGATCTTTTCACGTGCCTTTAGCACATTTGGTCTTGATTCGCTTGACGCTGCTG: 14500 a.u.
TCAAAACCAAGAATTGATGTGCAGGAAAATGAAGATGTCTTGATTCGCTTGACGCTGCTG: 4140 a.u.
GTCTTGTCTCATTGAGTAGTGGGTGTCCCCACTTCAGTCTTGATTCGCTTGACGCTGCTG: 4430 a.u.
ACATTGTCCCTATTTCACGTGGCCGAATGACACAGTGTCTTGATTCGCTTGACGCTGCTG: 15400 a.u.
TCTGATGTGTAAACTCATGTGGTGCACTGGTGTTGTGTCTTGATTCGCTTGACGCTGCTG: 6770 a.u.
CGCAGCGGCTGGCAGCATGTGCAGGATAATGATAAGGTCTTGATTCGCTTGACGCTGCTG: 11700 a.u.
CGACCATTTTATCGGCACGCTTCCGCAAGTTGGTTCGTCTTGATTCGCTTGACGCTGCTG: 8830 a.u.

Other studies, line by line
PhoQ, residues 284 288 289 292 302 303 SIHMAM
fold induction (PhoP, residues 12 14 15 18 19 NFCKL (Escherichia coli, UniProt P23836); Sort-seq, item: YFP reporter; E. coli; PhoQ-PhoP variant library, added: 10 µM Mg2+; reference: high Mg2+ state, higher = stronger signaling): 11.5

Some of these lines once more (study 3):
AAATTACTAAGTTGTGGTGTGGGTGACGCCGTATGAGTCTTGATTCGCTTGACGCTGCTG: 5180 a.u.
CATCGCACCCTGACATTCGTGACAAAATAAGAACAAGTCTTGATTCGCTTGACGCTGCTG: 4850 a.u.
CGACCATTTTATCGGCACGCTTCCGCAAGTTGGTTCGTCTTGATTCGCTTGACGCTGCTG: 8830 a.u.
